Measurements gathered from unrelated publications.
Protocols differ between the studies behind these lines.

SMILES | assay | test system | setting | scale | measurement | value
Cc1cc(NC2CCN(C(=O)OC3CCN(C(=O)/C=C/CN(C)C)C3)CC2)n2ncc(C(C)C)c2n1 (centres unmarked) | Phase I dose escalation CTCAE v4.0, item: small intestinal obstruction | patients with advanced solid tumours | dose not given, Total dosing grade 3 or higher | – | patients with adverse event | 4%
COc1ccc([C@@H](O)c2cc(-c3ncnc4cc(N5CCOCC5)ccc34)c(F)cc2Cl)nn1 | item: Diarrhea | locally advanced rectal cancer patients | dose not given, all dose groups, added: capecitabine plus radiotherapy | – | patients with TEAE | 79%
COc1cc(Nc2ncc3c(n2)-c2ccc(Cl)cc2C(c2c(F)cccc2OC)=NC3)ccc1C(=O)O | item: Headache, grade 1 | cancer patients, phase 1/2 | oral, dose not given, added: pembrolizumab | – | patients with adverse event | 13%
COc1cc2nccc(Oc3ccc(NC(=O)c4cc5c(n(-c6ccccc6)c4=O)CCCC5=O)nc3)c2cc1OC | – | patients with relapsed/refractory AML | oral, 10 mg once daily | – | patients with TEAEs | 100%
CCOc1c([C@H](C)n2nc(C)c3c(N)ncnc32)cc(Cl)c(F)c1[C@@H]1CNC(=O)C1 | item: QTcF change ≤30 ms | previously treated B-cell malignancy | oral, 15 mg once daily, overall population | relative to: baseline | patients | 100%
C=CC(=O)NC1CCN(c2ncc3ncnc(Nc4ccc(Oc5ccc6c(c5)ncn6C)c(C)c4)c3n2)CC1 | – | male patients | oral, dose not given, on-treatment adverse events | – | patients with Pruritus | 0%
O=C(Nc1nc2cccc(-c3ccc(CN4CCS(=O)(=O)CC4)cc3)n2n1)C1CC1 | – | rheumatoid arthritis patients | oral, 100 mg twice daily, 4 weeks, TEAE regardless of relatedness | – | patients with Gastrointestinal disorders | 16.7%
CCO[C@H]1CCN(Cc2c(OC)cc(C)c3[nH]ccc23)[C@H](c2ccc(C(=O)O)cc2)C1 | item: Nasopharyngitis | PNH patients, active haemolysis | oral, 100 mg twice daily, extension phase | – | patients with adverse event | 0%
CNC(=O)c1ccc(-c2cnc3ncc(Cc4ccc5ncccc5c4)n3n2)cc1F | item: Asthenia, all grades | cancer patients | oral, 600 mg twice daily, expansion cohort, any causality | – | patients with adverse event | 8%
C[C@@H](Nc1cc(F)cc(F)c1)c1cc(C(=O)N(C)C)cc2c(=O)cc(N3CCOCC3)oc12 | item: Paresthesia | advanced solid tumour patients | oral, dose not given, dose finding | – | patients discontinuing for AE | 0%
CC(C)C[C@H](NC(=O)CNC(=O)c1cc(Cl)ccc1Cl)B(O)O | item: Neutropenia, all grades | newly diagnosed multiple myeloma patients | oral, dose not given, maintenance phase, new onset, cycle 17 or later | – | patients with adverse event | 0%
Cc1cc(-c2nnc(N)nc2-c2ccc(F)cc2)cc(Cl)n1 | item: type 1 diabetes mellitus | IO-naive mCRPC patients, male | oral, dose not given, treatment-related, grade 1 | – | patients with immune-mediated AE | 0%
CNC(=O)c1cc(Oc2ccc(NC(=O)Nc3cc(C(C)(C)C)nn3-c3ccc4ncccc4c3)c(F)c2)ccn1 | – | patients | oral, dose not given, cycles 1 and 2, Medium AUC subgroup | – | patients with grade 1 musculoskeletal disorders | 7%
NC(=O)N1c2ccccc2C=Cc2ccccc21 | – | male patients | oral, dose not given, treatment-related adverse events | – | patients with upper abdominal pain | 0%

Repeated from above:
SMILES | assay | test system | setting | scale | measurement | value
COc1cc2nccc(Oc3ccc(NC(=O)c4cc5c(n(-c6ccccc6)c4=O)CCCC5=O)nc3)c2cc1OC | – | patients with relapsed/refractory AML | oral, 10 mg once daily | – | patients with TEAEs | 100%
CNC(=O)c1cc(Oc2ccc(NC(=O)Nc3cc(C(C)(C)C)nn3-c3ccc4ncccc4c3)c(F)c2)ccn1 | – | patients | oral, dose not given, cycles 1 and 2, Medium AUC subgroup | – | patients with grade 1 musculoskeletal disorders | 7%
